# Assay results from different studies.
# A part holds a random share of what one study measured.

# Study 1 — Molecule: PQWPCGKHKRVLIFAS; molecule type: peptide; direction: direction not given
tested on,assay,system,conditions,enrichment score
Saccharomyces cerevisiae,"pheromone growth arrest, yeast competitive growth sequencing",no Cln2 overexpression,peptide tiling library,-0.105
Saccharomyces cerevisiae,"cell growth, competitive growth deep sequencing",,"peptide tiling library, added: cyclin F-Cln2 fusion",0.431
,peptide binding,yeast competitive growth,added: B1-Cln2 chimera,-1.29
Saccharomyces cerevisiae,"binding, yeast competitive growth sequencing",,cyclin B2-Cln2 chimera,-1.1
Saccharomyces cerevisiae,"binding, competitive growth deep sequencing",cyclin E1-Cln2 fusion strain,peptide tiling library,-0.628
Saccharomyces cerevisiae,"cell growth, competitive growth deep sequencing",,"peptide tiling library, added: cyclin E2-Cln2 fusion",-0.77
human cyclin A2,competitive growth deep sequencing,"Saccharomyces cerevisiae, cyclin A2-Cln2 fusion strain",peptide tiling library,-0.361
Saccharomyces cerevisiae,"binding, yeast competitive growth sequencing","cyclin D1-Cln2 strain, peptide tiling library",pooled screen,-2.09
Cln2 (Saccharomyces cerevisiae),"peptide binding, competitive growth sequencing","Saccharomyces cerevisiae, unfused Cln2 strain",peptide tiling library,-0.911

# Study 2 — technique: competition protein-binding microarray; molecule type: double-stranded DNA, one strand shown; sample: in vitro; concentration: 2 µM; added: Cbf1 competitor, 0.05 µM; direction: higher = stronger binding; constant ends, left off below: … GTCTTGATTCGCTTGACGCTGCTG
# Target: Phosphate system positive regulatory protein PHO4, full length, GST-tagged (PHO4, Saccharomyces cerevisiae, UniProt P07270, residues 1-312)
# Setting: whole 60-bp probe, lowest competitor level
# Construct (chain): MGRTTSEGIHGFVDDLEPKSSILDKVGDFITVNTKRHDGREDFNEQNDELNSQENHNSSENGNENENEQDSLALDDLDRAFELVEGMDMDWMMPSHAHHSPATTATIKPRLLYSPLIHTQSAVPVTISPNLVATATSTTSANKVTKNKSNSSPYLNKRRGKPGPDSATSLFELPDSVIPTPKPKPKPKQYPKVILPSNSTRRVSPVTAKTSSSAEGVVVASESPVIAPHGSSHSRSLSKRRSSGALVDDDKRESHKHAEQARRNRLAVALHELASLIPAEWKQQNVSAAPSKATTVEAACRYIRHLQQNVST
Oligonucleotide,fluorescence intensity [a.u.]
TTTTTTTCCCAGAGACGCGTGGAAGCACCCATGGAT,7110
AAATTACTAAGTTGTCACGTAACTTACCCCGTATGA,4240
CCTTTGGAGCAGAGGCACCTGATAATGGAAGCGGTG,3700
CGTCCTAGCGATTGAATAGTGGGTGCCATGAGGAAG,6000
AATGCCAGATTCGTTTTCGTGACAAACTTTAGCATA,3720
GGGAGACACTTCCGTCACGTGAACCTCTATCTATTT,10900
ATATATCATTGGTTCCACGTTCACTTCCCTTATTAC,11200
AGGGACGAGGGTTGCCACGAGGAGGTAGGAAGGAGC,11100
AGAGTAGTCAGTCAACACGTTACCTCTGGTAACAGA,7440
CCTATAACAGCAGTTGTCGTGATGGTTATAGATAAA,5020
TTACAGGTCGTCTTCCACGTGGTGAGTATCAAAGTA,18200
TAACAGCAATTGCACCACATGCAAGTCTCATATGCA,8760
AAAAGCGTCAAAAAACTCGTGTAAGAGGTCAAAAAG,6000
GTCTTGTCTCATTGGGTAGTGGGTGTCCCCACTTCA,5150
ATTTTTTTAAAGAATCGTGTGGTAAACAAGCTTCCA,5910
GTCTTATGTGGGTTAAACGTGGGACGAGAACTATAA,12300
CGGGGTTAAGTTTGGAGAGTGGGTGGCTTGCAGCAG,4520
TTAAGCGACCTCCTGCCCGTGAGAGAATCAAGTAAG,4780
TATTTGGCCTTTTTGCACGTCGACTGGGCCATTTCC,4270

# Study 3 — technique: RNA Bind-n-Seq; molecule type: RNA; sample: in vitro; concentration: 365 nM; baseline: no-protein control; direction: higher = stronger binding
# Target: RNA binding protein fox-1 homolog 2, RRM domain, GST-SBP tag (RBFOX2, Homo sapiens, UniProt O43251-10, residues 100-194)
# Setting: natural RNA segment, single round, ends assumed
# Constant ends, left off below: GGGAGUUCUACAGUCCGACGAUC … UGGAAUUCUCGGGUGCCAA
# Construct (chain): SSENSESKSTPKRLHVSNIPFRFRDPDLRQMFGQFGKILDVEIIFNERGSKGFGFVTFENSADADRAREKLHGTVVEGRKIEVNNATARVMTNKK
Oligonucleotide,RBNS enrichment (R)
CUCCCCAAAUUGGGCAUUUAAUUCAUCUUUAAACUGGUUGUUCUGUUAGUCGCUAACUUAGUAAGUGCUUUUCUUAUAGAACCCCUUCUGACUGAGCAAUAUGCCUCCUU,0.314
AGAAGCUCUGAAGCCCAUGUAUGGCAUGGAUUGUGGAAGACUGGGCAACAUAUUUAAGAUUUCCAGCUCCUUGUGUAUAUGAAUGCAUUUGUAAGCAUCCCCCAAAUUAU,11.1
GCUUUCAGGAGGGCCAGUUCCAAUCCUGAUCACAGCCUGCAUGGAUUUCCACUUGCCUGGUGCUUGCAGUUUGAAGGGAAGGAGGAAGAGGGAGGCAGAAAAGGAAGGCA,12.5
GCUGGGAGCCCUUGUGUGUCUGGUCACACUUUUUAGGCGUCACGCCAAAGGCCAGCCUCCUGGCCCCAAUACCCAUUUUGGAAGCCCCUGUGGCCGUGUGGAUGUCGGUA,0.319
UGUCACCUGCUGUGAUUCCUAGAGUCAGAAUCAGACUGCAGUGGCCACAGGCACAAGUGGGAAGUGAUGCAGCUCAAAGGUUUGGAUGAGAUGGGAUGUGCAGCGAUUGA,1.04
CAGAGACAGUAUUGUAUAACCAAAGUAUUUGAUGCCAAAAUUUGACGUUAAAAUAAUGAUUUGAUUUCCUGCCCUGGUUUGAAGGUCCAUUUUAUUCCUUUGCACUCAUU,0.371
CUGUGUAGCCCUUUGGAUUCAGCCUGUGGAUGUCCACUCAUCCCUGCAGGCUCCUACUGCCCAUGCUGUGGCUGGAUUAAACAGCACGGGGUCUGAUAGAAAACGGGACU,0.423
UUAACCGUUCAAGCGGGGAAUUAAAACAAACUUUUGGACUAUUUUUUUUUAAUUGUUCUUUAUGUUUAAAACUUGCAGAGAUAGAAGCAGGCUUCUGAGGUACGGGGUCU,0.609

# Study 4 — technique: protein-binding microarray; molecule type: double-stranded DNA, one strand shown; sample: in vitro; concentration: 250 nM; setting: 60-bp whole probe; added: salmon DNA 0.4 mg/ml; baseline: random background probes; direction: higher = stronger binding; constant ends, left off below: GCCTAGCAC … GTCTTGATTCGCTTGACGCTGCTG
# Target: Interferon regulatory factor 5, full length, phosphomimetic (IRF5, Homo sapiens, UniProt Q13568-2, residues 1-514, K96S/S451D/S453D/S456D/S462D)
Oligonucleotide,log fluorescence [z-score]
TTAGATTTCCTTATCCTTTAGTGCTAG,0.826
GACGGTTTCGGGTATCGGTACGTGCTA,8.67
GACGATCTCAGTCTCGAGAAGTGCTAG,0.037
CACTGACACCGATTTCATCACGTGCTA,0.375
TAGCTTCTCAATTAAAAAAAGTGCTAG,0.545
TTAGGTATCGACTATCGTTTAGTGCTA,5.8
CTTTACTTCACTCTCTGCTTGTGCTAG,0.775
GACAATTTCAGTTCCGAGACGTGCTAG,2.58
GACGGTGTCCTACTGCTGACGTGCTAG,-0.68
GCTCCAGGAAGCCTTGCCTGGTGCTAG,-0.67
TCAATACTGATTTCCACACTGTGCTAG,0.453
GACGGTTTCCTACTACTGACGTGCTAG,0.489
TTAGGTCTCGGACTCGGTTAGTGCTAG,-0.199
TTAGGACTGGAGTATCGGTTAGTGCTA,5.16
TCAAAACTCGTGTTTTTCACTGTGCTA,1.03
GACGGACTGGGGTATCGGGATGTGCTA,0.24
CTAGATTTCAGTTCCGATTAGTGCTAG,2.82

# Study 5 — technique: protein binding microarray; molecule type: double-stranded DNA, one strand shown; sample: in vitro; concentration: not given; baseline: not given; direction: higher = stronger binding
# Target: Histone acetyltransferase KAT6A, winged helix 1, GST fusion (KAT6A, Homo sapiens, UniProt Q92794, residues 1-85)
# Setting: 8-mer, flanks averaged, mean of 2 arrays, mostly near background
# Residues (chain): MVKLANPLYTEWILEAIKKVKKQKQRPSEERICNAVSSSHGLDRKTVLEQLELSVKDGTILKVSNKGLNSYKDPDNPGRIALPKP
Oligonucleotide,E-score
ATTGACCG,0.317
GAACATTA,-0.13
AAATAAGG,-0.104
CATTCAGC,-0.0646
CTGGGGAC,-0.295
AACGAGGA,-0.25
TTGACAAA,-0.058
TACCTTCA,-0.137
CGACGAAG,-0.0559
AAGCGCCA,0.142
CCAGTTCG,-0.132
ACCGCACC,0.236
ATGTTTGC,-0.0714
GCACATCA,0.0304
AAAAGAGA,-0.226
CCCAGCTC,-0.0996
CAATTGGC,-0.081
ATAAGTGG,-0.177
AAACTGCG,0.19
ACGTGTAG,-0.0513
ATAACGCG,0.291
ACGGGTGA,0.282
AATGTTAG,-0.0231
ACTCAACA,-0.132
ACAGCGAA,-0.0304

# A few entries again (study 2):
Oligonucleotide,fluorescence intensity [a.u.]
TTACAGGTCGTCTTCCACGTGGTGAGTATCAAAGTA,18200
TAACAGCAATTGCACCACATGCAAGTCTCATATGCA,8760
AAAAGCGTCAAAAAACTCGTGTAAGAGGTCAAAAAG,6000
GTCTTGTCTCATTGGGTAGTGGGTGTCCCCACTTCA,5150
ATTTTTTTAAAGAATCGTGTGGTAAACAAGCTTCCA,5910
GTCTTATGTGGGTTAAACGTGGGACGAGAACTATAA,12300
CGGGGTTAAGTTTGGAGAGTGGGTGGCTTGCAGCAG,4520
TTAAGCGACCTCCTGCCCGTGAGAGAATCAAGTAAG,4780
